{"data": "Measured values gathered from unrelated publications", "note": "Compare with care: the assays were run in different laboratories. Several values in a cell are separate wells, animals, samples, runs or records."}
{"Compound": "CCc1nc(N)nc(N)c1C#C[C@H](C)c1cc(-c2ccncc2)ccc1OC", "test system": "mouse, plasma", "setting": "intraperitoneal, 16 mg/kg, single dose", "half-life": "0.33 h"}
{"Compound": "COc1cc2c(Oc3ccc(Nc4nn(C)cc4C(=O)NC4CCCCC4)cc3F)ccnc2cc1OCCCCCCC(=O)NO", "test system": "mouse, plasma", "setting": "intraperitoneal, 10 mg/kg", "half-life": "8.41 h"}
{"Compound": "N#Cc1cnc2cc(OCC3CCNCC3)c(F)cc2c1Nc1cc(F)c(OCc2cccc(Cl)n2)cc1Cl", "test system": "female CD-1 mouse, plasma", "setting": "intravenous, 5 mg/kg", "half-life": "8 h"}
{"Compound": "CCC(=C(c1ccc(Cl)cc1)c1ccc(OCCN2CCOCC2)cc1)c1ccc(OC)cc1", "test system": "female C57BL/6 mouse, plasma", "setting": "oral, 400 mg/kg, single dose", "half-life": "8.2 h"}
{"Compound": "COC(=O)c1ccc2c(c1)NC(=O)/C2=C(\\Nc1ccc2c(c1)CCN2C(=O)CN1CCOCC1)c1ccccc1", "test system": "CD-1 mouse, plasma", "setting": "oral, 50 mg/kg", "half-life": "4.29 h"}
{"Compound": "O=C1OC2(c3ccccc31)c1cc(I)c(O)c(I)c1Oc1c2cc(I)c(O)c1I", "test system": "female C57BL/6 mouse, plasma", "setting": "intraperitoneal, 50 mg/kg", "half-life": "2 h"}
{"Compound": "O=C1C2=C(CCN(Cc3ccccc3)C2)N2CCN=C2N1Cc1ccc(C(F)(F)F)cc1", "test system": "female CD-1 mouse, plasma", "setting": "oral, 50 mg/kg", "half-life": "2.03 h"}
{"Compound": "COc1cccc(OCCN2CCC[C@H](CN3CCc4cc(OC)c(OC)cc4CC3=O)C2)c1", "test system": "female C57BL/6 mouse, plasma", "setting": "intraperitoneal, 20 mg/kg", "half-life": "0.58 h"}
{"Compound": "CCC/C(=C\\C1=C(F)C(=O)c2ccccc2C1=O)C(=O)N(CC)CC", "test system": "mouse, plasma", "setting": "oral, 25 mg/kg", "half-life": "3.7 h"}
{"Compound": "CC(=O)N[C@@H](Cc1ccc(O)cc1)CN(CC(=O)N[C@@H](CCCCN)CN(CC(=O)N[C@@H](Cc1ccccc1)CN(CC(=O)N[C@H]1CCCCNc2c(F)c(F)c(c(F)c2F)S(=O)(=O)c2c(F)c(F)c(c(F)c2F)NCCCC[C@@H](CN(CC(=O)N[C@@H](C)CN(CC(N)=O)S(C)(=O)=O)S(C)(=O)=O)NC(=O)CN(S(=O)(=O)CC(C)C)C[C@H](CC(C)C)NC(=O)CN(S(=O)(=O)CCN)C1)S(=O)(=O)CC(C)C)S(=O)(=O)CCN)S(C)(=O)=O", "test system": "C57BL/6 mouse, plasma", "setting": "oral, 50 mg/kg", "half-life": "3 h"}
{"Compound": "NS(=O)(=O)NCC(F)(F)c1ccccc1F", "test system": "mouse, brain", "setting": "oral, 5 mg/kg", "half-life": "4.5 h"}
{"Compound": "CN(C)CCNC(=O)/C=C/C(Cc1ccccc1)Nc1ccnc2cc(Cl)ccc12 (stereo not drawn)", "test system": "CD-1 mouse, plasma", "setting": "oral, 5 mg/kg, single dose", "half-life": "8.83 h"}
{"Compound": "COc1cc(OCCN2CCOCC2)cnc1-c1nc2cc(OC(F)(F)F)ccc2[nH]1", "test system": "mouse, plasma", "setting": "oral, 100 mg/kg", "half-life": "3.38 h"}
{"Compound": "COc1cc2c(cc1OC)CC(=O)N(C[C@H]1CCCN(CCOc3ccc(F)cc3)C1)CC2", "test system": "male C57BL/6 mouse, plasma", "setting": "intraperitoneal, 20 mg/kg", "half-life": "0.88 h"}
{"Compound": "CCCCCCCCCCCCCCCC(=O)N[C@@H](CCC(=O)NCCCC[C@H](NC(=O)[C@H](CC(=O)O)NC(=O)[C@H](CO)NC(=O)[C@@H](NC(=O)[C@H](Cc1ccccc1)NC(=O)[C@@H](NC(=O)CNC(=O)[C@H](CCC(N)=O)NC(=O)[C@H](CO)NC(=O)[C@@H](N)Cc1c[nH]cn1)[C@@H](C)O)[C@@H](C)O)C(=O)N[C@@H](CO)C(=O)N[C@@H](CCC(=O)O)C(=O)N[C@@H](Cc1ccc(O)cc1)C(=O)N[C@@H](CC(C)C)C(=O)N[C@@H](CC(=O)O)C(=O)N[C@@H](CO)C(=O)N[C@@H](CCC(=O)O)C(=O)N[C@@H](CCCNC(=N)N)C(=O)N[C@@H](C)C(=O)N[C@@H](CCCNC(=N)N)C(=O)N[C@@H](CC(=O)O)C(=O)N[C@@H](Cc1ccccc1)C(=O)N[C@H](C(=O)N[C@@H](C)C(=O)N[C@@H](Cc1c[nH]c2ccccc12)C(=O)N[C@@H](CC(C)C)C(=O)N[C@@H](CCC(=O)O)C(=O)N[C@@H](C)C(=O)NCC(=O)NCC(=O)O)C(C)C)C(=O)O", "test system": "mouse, plasma", "setting": "subcutaneous", "half-life": "~5 h"}
{"Compound": "C[N+]1(CC(=O)OC2CCCCCCCCCCC2)CCCCC1", "test system": "mouse, plasma", "setting": "intraperitoneal, 1 mg/kg, single dose", "half-life": "0.8 h"}
{"Compound": "O=C1CCc2ccc(NS(=O)(=O)c3cccc(Oc4ccccc4)c3)cc2N1", "test system": "C57BL/6 mouse, plasma", "setting": "subcutaneous, 3 mg/kg", "half-life": "2.3 h"}
{"Compound": "CCOC(=O)c1nc2cc(Cl)c(Cl)cc2nc1N1CCN(C(=O)Nc2ccc(N3CCNCC3)cc2)CC1", "test system": "male mouse, plasma", "setting": "oral, 10 mg/kg", "half-life": "5.29 h"}
{"Compound": "Cc1ccc2oc(-c3c4c(N)n[nH]c(=O)c4nn3-c3ccc(NC(=O)/C=C/CN(C)C)cc3)c(C)c2c1", "test system": "mouse, plasma", "setting": "intraperitoneal, 3 mg/kg", "half-life": "3.7 h"}
{"Compound": "Nc1ccn(C[C@@H](CO)OCP(=O)(O)OCCCS(=O)(=O)CCCCCCCCCCC2CCC2)c(=O)n1", "test system": "mouse, plasma", "setting": "intravenous, 3 mg/kg, single dose", "half-life": "0.2 h"}
{"Compound": "CCc1nc(N)nc(N)c1C#C[C@H](C)c1cc(-c2cc(C)nc(C)c2)ccc1Cl", "test system": "mouse, plasma", "setting": "intraperitoneal, 5 mg/kg", "half-life": "1.14 h and 1.15 h"}
{"Compound": "CCC(=O)N(C)c1ccc(Cl)c(Cl)c1", "test system": "female C57BL/6 mouse, plasma", "setting": "intravenous, 2 mg/kg", "half-life": "0.493 h"}
{"Compound": "Cc1ccc(CN2C(=O)/C(=N\\c3ccc(Cl)cc3Br)c3ccccc32)cc1", "test system": "C57BL/6 mouse, plasma", "setting": "intraperitoneal, 20 mg/kg", "half-life": "9.61 h"}
{"Compound": "C=CC(=O)Nc1cccc(Cn2ncc3cnc(Nc4cnn(CCOC)c4)nc32)c1", "test system": "male BALB/c mouse, plasma", "setting": "oral, 30 mg/kg", "half-life": "1.22 h"}
{"Compound": "COc1ccc2c(c1)CCn1c[n+]3c(c1-2)-c1ccc(OC)cc1CC3", "test system": "male C57BL/6 mouse, plasma", "setting": "intraperitoneal, 10 mg/kg, single dose", "half-life": "2.3 h"}
{"Compound": "COc1cc(OC)c(F)c(/C=C/c2cnc3ccn(S(=O)(=O)c4cn(CCF)cn4)c3n2)c1F", "test system": "CD-1 mouse, plasma", "setting": "oral, 10 mg/kg", "half-life": "1.9 h"}
{"Compound": "CN1CCC(N[C@@H]2CCc3[nH]c4c(C(N)=O)ccc(-c5ccccc5Cl)c4c3C2)CC1", "test system": "mouse, plasma", "setting": "oral, 10 mg/kg", "half-life": "12 h and 6.95 h"}
{"Compound": "O=C(OCc1cccc(O)c1O)c1ccc(O)c(CO)c1", "test system": "male CD-1 mouse, plasma", "setting": "intravenous, 10 mg/kg", "half-life": "0.042 h"}
{"Compound": "Nc1ccn(C[C@@H](CO)OCP(=O)(O)OCCCS(=O)(=O)CCCCCCCCCCCCCC2CCC2)c(=O)n1", "test system": "mouse, plasma", "setting": "intravenous, 3 mg/kg, single dose", "half-life": "0.7 h"}
{"Compound": "C[C@H]1CN(C(=O)c2cn(-c3ccnc(N)n3)c3cc(C#CC4(O)CCCCC4)ccc23)CCN1", "test system": "CD-1 mouse, plasma", "setting": "oral, 10 mg/kg", "half-life": "1.02 h"}
{"Compound": "O=C(O)c1ccc(O)c(CO)c1", "test system": "male C57BL/6 mouse, plasma", "setting": "oral, 4 mg/kg", "half-life": "1.24 h"}
{"Compound": "CC1=C(O)C(=O)C=C2C1=CC=C1[C@@]2(C)CC[C@@]2(C)[C@@H]3C[C@](C)(C(=O)NCCOCCOCCOCCOCC(=O)N[C@H](C(=O)N4C[C@H](O)C[C@H]4C(=O)N[C@@H](C)c4ccc(-c5scnc5C)cc4)C(C)(C)C)CC[C@]3(C)CC[C@]12C", "test system": "male C57BL/6 mouse, plasma", "setting": "intraperitoneal, 20 mg/kg", "half-life": "8.6 h"}
{"Compound": "C=CCC1C(=O)C=C(OC)C2(OC)C(C)C(c3ccc4c(c3)OCO4)OC12 (single isomer, unassigned; (-))", "test system": "male C57BL/6 mouse, blood", "setting": "intravenous, 5 mg/kg", "half-life": "0.62 h"}
{"Compound": "CCC(CC)CNC(=N)NC(=N)NCCCCCCNC(=N)NC(=N)NCC(CC)CC", "test system": "female BALB/c mouse, plasma", "setting": "intraperitoneal, 5 mg/kg, single dose", "half-life": "17 h"}
{"Compound": "CC1=C(/C=C/C(=O)N2CCN(C(N)=O)CC2)C(C)(C)CCC1", "test system": "male mouse, plasma", "setting": "oral, 20 mg/kg, single dose", "half-life": "0.854 h"}
{"Compound": "O=c1c2cc(-c3ccc(Cl)cc3)nc(-c3cccnc3)c2ncn1C1CCC(O)CC1 (stereo not drawn)", "test system": "BALB/c mouse, plasma", "setting": "oral, 300 mg/kg, single dose", "half-life": "31.5 h"}
{"Compound": "O=C(NCCCCc1ccccc1)n1c(=O)oc2cc(-c3ccc(F)cc3)ccc21", "test system": "CD-1 mouse, plasma", "setting": "intraperitoneal, 10 mg/kg", "half-life": "7.63 h"}
{"Compound": "Brc1ccccc1-c1nnc(CSc2nnnn2-c2ccccc2)o1", "test system": "male C57BL/6 mouse, plasma", "setting": "intraperitoneal, 10 mg/kg", "half-life": "0.49 h"}
{"Compound": "Cc1cc(C)c(S(=O)(=O)N(CC(=O)O)c2ccc(Nc3ccnc(N4CCCC4)n3)cc2)c(C)c1", "test system": "nude mouse, tumour", "setting": "intraperitoneal, 100 mg/kg, single dose, tumour-bearing", "half-life": "4.05 h"}
{"Compound": "CCOc1c(C(C)(C)O)sc2cnc(Nc3ccc(N4CCC(N5CC6(COC6)C5)CC4)cc3OC)nc12", "test system": "male C57BL/6 mouse, plasma", "setting": "oral, 30 mg/kg", "half-life": "6.9 h"}
{"Compound": "C[C@H]1CCCN1Cc1nc2cc(NC(=O)c3ccc4c(cnn4C)c3)ccc2[nH]1", "test system": "female BALB/c mouse, plasma", "setting": "oral, 30 mg/kg", "half-life": "0.83 h"}
{"Compound": "O=C(c1ccccc1)N1C(c2ccc(OCC3CCN(CCCF)C3)cc2)c2ccc(O)cc2CC12CC2 (stereo not drawn)", "test system": "C57BL/6 mouse, serum", "setting": "oral, 25 mg/kg", "half-life": "4.02 h"}
{"note": "Some of these lines once more:"}
{"Compound": "COc1cc(OC)c(F)c(/C=C/c2cnc3ccn(S(=O)(=O)c4cn(CCF)cn4)c3n2)c1F", "test system": "CD-1 mouse, plasma", "setting": "oral, 10 mg/kg", "half-life": "1.9 h"}
{"Compound": "Cc1ccc(CN2C(=O)/C(=N\\c3ccc(Cl)cc3Br)c3ccccc32)cc1", "test system": "C57BL/6 mouse, plasma", "setting": "intraperitoneal, 20 mg/kg", "half-life": "9.61 h"}
{"Compound": "CCOc1c(C(C)(C)O)sc2cnc(Nc3ccc(N4CCC(N5CC6(COC6)C5)CC4)cc3OC)nc12", "test system": "male C57BL/6 mouse, plasma", "setting": "oral, 30 mg/kg", "half-life": "6.9 h"}
{"Compound": "Cc1cc(C)c(S(=O)(=O)N(CC(=O)O)c2ccc(Nc3ccnc(N4CCCC4)n3)cc2)c(C)c1", "test system": "nude mouse, tumour", "setting": "intraperitoneal, 100 mg/kg, single dose, tumour-bearing", "half-life": "4.05 h"}
